Assay results gathered from unrelated publications.
A part holds a random share of what one study measured.

Sample 1 — method: competition protein-binding microarray; form: double-stranded DNA, one strand shown; sample: in vitro; concentration: 2 µM; together with: Pho4 competitor, 0.05 µM; reading: higher = stronger binding; all sequences stand within: … GTCTTGATTCGCTTGACGCTGCTG
Target: Centromere-binding protein 1, full length, His-tagged (CBF1, Saccharomyces cerevisiae, UniProt P17106, residues 1-351)
Chain of UniProt P17106 (whole entry, looked up): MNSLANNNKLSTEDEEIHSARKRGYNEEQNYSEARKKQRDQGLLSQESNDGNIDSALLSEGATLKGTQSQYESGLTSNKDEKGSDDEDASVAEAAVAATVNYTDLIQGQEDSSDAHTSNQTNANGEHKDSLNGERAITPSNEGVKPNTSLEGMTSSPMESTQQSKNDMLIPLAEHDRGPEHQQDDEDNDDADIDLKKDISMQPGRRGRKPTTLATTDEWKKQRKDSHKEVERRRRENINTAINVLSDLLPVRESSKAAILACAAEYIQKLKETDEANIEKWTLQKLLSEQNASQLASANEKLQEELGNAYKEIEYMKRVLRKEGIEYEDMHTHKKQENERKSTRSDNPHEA
Notes: whole 60-bp probe, lowest competitor level
Strand	fluorescence intensity [a.u.]
AAAGCGGTAATTTGTCACGTAACTTCACATATCTAT	149
TTTTTCCCTAGAAAAATCGTGCTAACAGGTATATCA	84.6
TAATGTCAATATTCACACGTCGTTATAAGCAGCTAA	91
CAAACAACAATAATCCACGTGCTTTTCGCGTTTTTT	1550
CGAGGACGCCTGCTCTTTCACTTTGTATGGTGATGG	63.7
AACCAGTCCAAAAAGTACGTGCAATAAAAGAAGTTG	102
AGAAAAACCAGCCATCGCGTGTGTTTGGAGAGCTGA	49.8
AGTTAGAGGAAAAAGCACGCAAAAAGGGCACACAGG	79.2
CTTCTGTAAATTTGCCCCGTGGGTGGACGCGCCCCG	100
AAAGCGGTAATTTGATCGGTGGGTGCAGATATCTAT	89.4
AAAATGGAAAAGTTACACGTGGAAGATACAACAACC	642
CTTTCCCGATCTTTTCACGTGGAATTAGCACATTTG	607
AAAGCGGTAATTTGTCACACGACTTCACATATCTAT	145
CATACCCAACCTTTTCACGTGGATTAAGATATTTGT	784
CCAAGCAGCAGTTTACGCGTGTCCAAAAAATGCTGT	92
AACAAGTATTGAATGCACACGCAAATAGCTTAGGCC	79.8
CTTCTGTAAATTTGTCATGTGGGTGGACGCGCCCCG	159
CATACCCAACCTTGGTAAGTGGGTGAAGATATTTGT	64.7
TTACAGATAATGGTGCATGTGATAGGCTTCGTACCA	620
GCCTTCGACAAAAAGGGCGTGCAAACTCAACAGCGG	80.5
CGGGGTTAAGTTTGATTTGTGGGTGGCTTGCAGCAG	68
CGTCCTAGTGATTGTCCTGTGGGTGCCATGAGGAAG	84.9
CTAACGAAGGTTTGGCGCGTGGGTGACAAGCCAAGT	72.2

Sample 2 — method: RNA Bind-n-Seq; form: RNA; sample: in vitro; concentration: 200 nM; notes: whole 134-nt RNA, ends assumed; together with: 150 mM KCl; relative to: input library; reading: higher = stronger binding
Target: Ras GTPase-activating protein-binding protein 1, full length (G3BP1, Homo sapiens, UniProt Q13283)
Chain of UniProt Q13283 (whole entry, looked up): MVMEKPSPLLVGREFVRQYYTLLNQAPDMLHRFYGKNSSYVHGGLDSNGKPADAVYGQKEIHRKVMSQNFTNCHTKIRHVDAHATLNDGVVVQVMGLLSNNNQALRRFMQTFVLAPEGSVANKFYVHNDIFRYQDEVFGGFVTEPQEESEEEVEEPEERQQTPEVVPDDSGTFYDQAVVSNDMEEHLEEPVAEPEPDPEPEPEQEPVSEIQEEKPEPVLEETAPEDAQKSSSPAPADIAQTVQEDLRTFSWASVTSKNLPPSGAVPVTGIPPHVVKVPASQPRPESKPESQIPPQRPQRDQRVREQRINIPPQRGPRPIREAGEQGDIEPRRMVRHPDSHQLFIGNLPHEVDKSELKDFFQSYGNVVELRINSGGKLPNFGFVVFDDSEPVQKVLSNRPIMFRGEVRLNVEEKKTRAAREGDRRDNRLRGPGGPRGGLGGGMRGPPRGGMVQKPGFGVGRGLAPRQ
All sequences stand within: GGGAGUUCUACAGUCCGACGAUC … UGGAAUUCUCGGGUGUCAAGG
Strand	log2 enrichment
CCUGUGCUACACAUCGUAUGUACCGAAUCGGGGAAAAAAAGGAAAAAAAGGAAAAAAAGGAAAGUAUUAUGUUACGCCGUUCGGAUCUGC	-0.372
ACCAUGCAGGUGGGCAUCUUUGGGAAGUGGGGCAAGGGGGGGAUAGGGAGGGGGGUAACACUUUGGGAACAGGUGGUGCCAGGUCGUUUC	1.31
GCAGGAAGUAAAAACAAAUGGAAAUGCUUCGGAUAGUGGCAGGGGUGGGGGUUGCUAAGCAAAGGGUGGGAUGGGAGUGGGUAAAGAGUU	0.773
CAAGUCCUGUGCUACACAUCGUAUGUACCGAAUCGGAAAAAGGAGGUUUUUUUGGAAAGUAUUAUGUUACGCCGUUCGGAUCUGCACUUC	-1.06
CCUGUGCUACACAUCGUAUGUACCGAAUCGGGUUUUUUUGGGAAAAAAAGGGAAAAAGGGAAAGUAUUAUGUUACGCCGUUCGGAUCUGC	-1.05
UCCUGUGCUACACAUCGUAUGUACCGAAUCAAACCCCCAAACCCCCAAAUUUUUUUAAAAAAGUAUUAUGUUACGCCGUUCGGAUCUGCA	-0.108
AGUCCUGUGCUACACAUCGUAUGUACCGAAUCGGGGUUUGGGGUGGGGAAAAAGGGGAAAGUAUUAUGUUACGCCGUUCGGAUCUGCACU	0.21
ACCAUGCAGGUGGGCAUCUUUGGGAAGUGGGGCAAGGGGGGGAUAGGGAGGGGGGUAACACUCUGGGAACAGGUGGUCCCAGGUCGUUUC	0.996
UUCCUCAGGGUAGAACUGGAUGACUCAGACGUGUUCCAUGGUGAACCUGAACCUGAGGAGCUGCCUGGAGGUAAGGGCCCUGAACUGUCC	-2.48
GUCCUGUGCUACACAUCGUAUGUACCGAAUCGGGGAAAAAGGGGAAAAAGGAAAAAGGGAAAGUAUUAUGUUACGCCGUUCGGAUCUGCA	-0.342
CCUCAAGUCCUGUGCUACACAUCGUAUGUACCGAAUCGGAAAAAGGUGGUGGAAAGUAUUAUGUUACGCCGUUCGGAUCUGCACUUCCAG	-0.0675
AGUCCUGUGCUACACAUCGUAUGUACCGAAUCGGGGUUUUUUUGGGGAGGGGAGGGGAAAGUAUUAUGUUACGCCGUUCGGAUCUGCACU	0.632
UUGUUCUGGCAUAAACAUAACAUUGAGAAGUCCCUUGCUGAUCUCCCUAAUUUCACUCCCUUUCCGGAUGAGUGGACAGUGGAAGAUAAA	-0.453
CUCAAGUCCUGUGCUACACAUCGUAUGUACCGAAUCGGGGUGGUGGGGUGGGGAAAGUAUUAUGUUACGCCGUUCGGAUCUGCACUUCCA	0.517

Sample 3 — method: universal PBM; form: double-stranded DNA, one strand shown; sample: in vitro; concentration: 600 nM; reading: higher = stronger binding
Target: Sal-like protein 4, full length isoform A (SALL4, Homo sapiens, UniProt Q9UJQ4, residues 1-1053)
Chain of UniProt Q9UJQ4 (whole entry, looked up): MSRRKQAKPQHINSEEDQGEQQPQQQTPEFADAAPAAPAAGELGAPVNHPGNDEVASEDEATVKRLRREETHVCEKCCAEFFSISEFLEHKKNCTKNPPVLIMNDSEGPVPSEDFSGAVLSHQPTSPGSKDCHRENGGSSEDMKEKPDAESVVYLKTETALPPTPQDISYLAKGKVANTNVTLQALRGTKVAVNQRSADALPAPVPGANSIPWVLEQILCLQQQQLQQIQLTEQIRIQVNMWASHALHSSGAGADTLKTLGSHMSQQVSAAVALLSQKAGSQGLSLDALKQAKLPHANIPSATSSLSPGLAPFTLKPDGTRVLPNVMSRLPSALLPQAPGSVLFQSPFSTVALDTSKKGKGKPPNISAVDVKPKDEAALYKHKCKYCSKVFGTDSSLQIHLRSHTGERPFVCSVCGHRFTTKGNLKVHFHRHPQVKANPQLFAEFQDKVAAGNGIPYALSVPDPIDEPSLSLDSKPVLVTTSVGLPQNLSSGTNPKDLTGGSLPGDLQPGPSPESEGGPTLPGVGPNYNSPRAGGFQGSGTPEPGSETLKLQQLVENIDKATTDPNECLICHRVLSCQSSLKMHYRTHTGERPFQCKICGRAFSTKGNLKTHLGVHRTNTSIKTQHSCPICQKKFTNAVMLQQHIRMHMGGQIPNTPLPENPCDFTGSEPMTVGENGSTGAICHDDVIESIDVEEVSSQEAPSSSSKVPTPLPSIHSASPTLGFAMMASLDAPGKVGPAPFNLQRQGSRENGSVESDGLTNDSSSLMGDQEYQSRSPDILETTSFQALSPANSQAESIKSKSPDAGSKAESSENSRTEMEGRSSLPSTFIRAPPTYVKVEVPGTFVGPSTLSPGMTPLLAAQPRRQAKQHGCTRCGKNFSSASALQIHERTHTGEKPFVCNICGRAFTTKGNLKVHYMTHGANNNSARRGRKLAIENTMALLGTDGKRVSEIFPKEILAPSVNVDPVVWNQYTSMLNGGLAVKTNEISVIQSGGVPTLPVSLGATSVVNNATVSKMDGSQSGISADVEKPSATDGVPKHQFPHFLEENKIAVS
Notes: 8-mer, flanks averaged, mean of replicates
Strand	E-score
CTTCATTC	0.0651
ATGCCACC	-0.236
GCTTGCAA	0.0766
GCGCCCTA	-0.25
GCGGTCTA	-0.012
GACCTAAC	-0.109
CGTTTGCA	0.0854
ATAGCGAG	0.0211
AGCGTATG	-0.0341
AATTTTAG	0.236
AACGCGTA	0.0649
AGTGTCGC	-0.181
GAGGCGGA	-0.185
CCCCGTAG	-0.266
ATGGGCGG	-0.233
AATATTTG	0.422
AACAGGAT	-0.0309
CACTCGTA	-0.0216

Sample 4 — method: RNA Bind-n-Seq; form: RNA; sample: in vitro; concentration: 365 nM; relative to: no-protein control; reading: higher = stronger binding
Target: RNA binding protein fox-1 homolog 2, RRM domain, GST-SBP tag (RBFOX2, Homo sapiens, UniProt O43251-10, residues 100-194)
Notes: natural RNA segment, single round, ends assumed
All sequences stand within: GGGAGUUCUACAGUCCGACGAUC … UGGAAUUCUCGGGUGCCAA
Residues (chain): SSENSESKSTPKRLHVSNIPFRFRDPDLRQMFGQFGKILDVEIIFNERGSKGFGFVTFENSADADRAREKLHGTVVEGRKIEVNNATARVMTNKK
Strand	RBNS enrichment (R)
CUCCAUCCUAGGGCAACCUGGGGCAGACAGGCCUGGUGGGGGGUGGGGAAACCUCCUUCCACCUGAGCUUGCUUGAAGGGACCCAGAGUCUUUGGGCCCAGAUCUUUAAA	0.226
UUCCUGUCACAACUGUAAACAAACUUAUCCUAAAUGUGUUAAAACAUAUUCUUGGGUACUCUAUUUAUGUAUCUUUCAUGCCUUGAAAAUCUGAAGGUUAAUCCAAACUC	0.416
GUUCACCCUUGAAAACGUUAAUCUGAGGACUUUUUCCACCAACUCAUUAAUGAUGGUGGAAGCAAGUGUAUUAUUUGUUUCCUGGAGAAUUUGAUGAAGAGCAGUCUUCC	0.285
UGGACCCUUGAUCCUGGAGGACCCUGGAAGGGGUGGUUCCCUGUAAGCUCCCAAGAUCUAUGUUCCUGGGAGUUUCCCAAACUCAUGAUGGAGUUGGUGACAAGAGCAGA	0.427
CUCCCCUAACAAAAUGGGCUGUCCCUGCCCAACAAGUCUGAAAUAGACCUUAAAACUGUGCUGCCUUAGUGGUAAGUAAGGGGUGGGGGUUGGACAGUGAAUCUUAAGAU	0.234
UUCCACAUCGAUCCUUGCCCUCUUCAGGCAGUACUUCAGGGCCCUCACCAGGACCCCUUAUGUAGUGUGCUAUCCUCUAAACUCCUAAGCUAAGUCACCCUGGUGUCAUU	0.453
CUGCGAAGUUUAAUGAUCCACAAGUGUAUAUAUGAAAUUCUCCUCCUUCCUUGCCCCCCUCUCUUUCUUCCCUCUUUCCCCUCCAGACAUUCUAGUUUGUGGAGGGUUAU	0.836
AGGAGGCAAAGCAGCUAUGGAAGGGCUUUUGCUGGUUAAUCAUUUCUGAGGUGAAAGACCUUCUUCUCAGGGGGCAGGCUCCACCAGGAAUGGAGGAUCAAUCGCUGUAA	1.04
GAGUUUUAUUUUGCAUUAGGGUGUGUUUUAUGUUAAGCAAAACAUACUUUAGAAACAAAUGAAAAAGGCAAUUGAAAAUCCCAGCUAUUUCACCUAGAUGGAAUAGCCAC	0.369
GAAAUCUGACACUAAGGUACCCUGAGCAUAGGAGGGGCAUGGGUCGCACCAUUGCACUUUAGAAAUAACACGGAGUGUUCCCAAGGGCCUCAGGUGGACUGCCACCCUGC	1.01
UUAUCCUAGUAUCUCAGUGUUCAUUCUUCUUGCCUUCAUAUUUUUUUCAAAGAAACAGCUGUGCUAAUGUCUUUGGUUUCCCGAUGAGUGUACACUACUGUAUAAUUUAU	0.647
AGCAGGUUUGCUGCAGUGUUUUUUUCUGUCCACAUGCAAAUUUUGGAUUCUAUCCCAGACCCAGGUUUUCUAGUUCAGAAGACUAACCAGCUUAGUCAGAAGAUGGUUCC	0.354

Excerpt of the above (sample 2):
Strand	log2 enrichment
ACCAUGCAGGUGGGCAUCUUUGGGAAGUGGGGCAAGGGGGGGAUAGGGAGGGGGGUAACACUUUGGGAACAGGUGGUGCCAGGUCGUUUC	1.31
GCAGGAAGUAAAAACAAAUGGAAAUGCUUCGGAUAGUGGCAGGGGUGGGGGUUGCUAAGCAAAGGGUGGGAUGGGAGUGGGUAAAGAGUU	0.773
CAAGUCCUGUGCUACACAUCGUAUGUACCGAAUCGGAAAAAGGAGGUUUUUUUGGAAAGUAUUAUGUUACGCCGUUCGGAUCUGCACUUC	-1.06
CCUGUGCUACACAUCGUAUGUACCGAAUCGGGUUUUUUUGGGAAAAAAAGGGAAAAAGGGAAAGUAUUAUGUUACGCCGUUCGGAUCUGC	-1.05
UCCUGUGCUACACAUCGUAUGUACCGAAUCAAACCCCCAAACCCCCAAAUUUUUUUAAAAAAGUAUUAUGUUACGCCGUUCGGAUCUGCA	-0.108
AGUCCUGUGCUACACAUCGUAUGUACCGAAUCGGGGUUUGGGGUGGGGAAAAAGGGGAAAGUAUUAUGUUACGCCGUUCGGAUCUGCACU	0.21
ACCAUGCAGGUGGGCAUCUUUGGGAAGUGGGGCAAGGGGGGGAUAGGGAGGGGGGUAACACUCUGGGAACAGGUGGUCCCAGGUCGUUUC	0.996
UUCCUCAGGGUAGAACUGGAUGACUCAGACGUGUUCCAUGGUGAACCUGAACCUGAGGAGCUGCCUGGAGGUAAGGGCCCUGAACUGUCC	-2.48
GUCCUGUGCUACACAUCGUAUGUACCGAAUCGGGGAAAAAGGGGAAAAAGGAAAAAGGGAAAGUAUUAUGUUACGCCGUUCGGAUCUGCA	-0.342
CCUCAAGUCCUGUGCUACACAUCGUAUGUACCGAAUCGGAAAAAGGUGGUGGAAAGUAUUAUGUUACGCCGUUCGGAUCUGCACUUCCAG	-0.0675
